Results from different studies.
A part holds a random share of what one study measured. Values joined by “and” are separate records of one study, mostly repeats; a detail may differ.

Set 1 — technique: competition protein-binding microarray; form: double-stranded DNA, one strand shown; sample: in vitro; tested at: 2 µM; added: Pho4 competitor, 0.05 µM; direction: higher = stronger binding; constant ends, left off below: … GTCTTGATTCGCTTGACGCTGCTG
Target: Centromere-binding protein 1, full length, His-tagged (CBF1, Saccharomyces cerevisiae, UniProt P17106, residues 1-351)
Sequence of UniProt P17106 (whole entry, looked up): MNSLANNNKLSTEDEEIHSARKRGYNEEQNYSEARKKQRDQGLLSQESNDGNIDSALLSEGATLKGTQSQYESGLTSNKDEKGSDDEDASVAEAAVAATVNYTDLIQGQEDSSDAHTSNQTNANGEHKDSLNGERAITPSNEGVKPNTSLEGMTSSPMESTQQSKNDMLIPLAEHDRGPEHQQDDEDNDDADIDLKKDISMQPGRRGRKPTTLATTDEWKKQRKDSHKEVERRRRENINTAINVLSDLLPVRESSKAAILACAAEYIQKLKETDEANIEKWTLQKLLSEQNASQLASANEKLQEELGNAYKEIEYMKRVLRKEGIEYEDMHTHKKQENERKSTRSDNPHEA
Notes: whole 60-bp probe, lowest competitor level
| Oligonucleotide | fluorescence intensity |
| --- | --- |
| CTTCTGTAAATTTGTCTGGTGGGTGGACGCGCCCCG | 104 a.u. |
| GTATTTTGTAAACAGCACGTGATGGACAGGGCGCAG | 4380 a.u. |
| CGGGGTTAAGTTTGTTGTGTGGGTGGCTTGCAGCAG | 72.1 a.u. |
| TCTTACCTCCGTTAGCACGTCGTTGGTTAGGCTACT | 78.4 a.u. |
| TTTCCTCTTGAGATGGACGTGCTTTAGCCGGCCGGA | 61.3 a.u. |
| AAATTACTAAGTTGTCACGACACTTACCCCGTATGA | 225 a.u. |
| GTTGAAGTCAAGTTGAACGTGATGGGATACTGATTT | 173 a.u. |
| CTAACGAAGGTTTGCCCGGTGGGTGACAAGCCAAGT | 58 a.u. |

Set 2 — cell line: HEK-293T; effect on: pseudovirus infection; technique: FDA-approved drug library screen; organism: VSV pseudotyped with SARS-CoV-2 spike; tested at: 10 µM; time: 16 h; relative to: vehicle-treated
| SMILES | GFP-positive cells [%] |
| --- | --- |
| CCOc1nc2cccc(C(=O)O)c2n1Cc1ccc(-c2ccccc2-c2nnn[nH]2)cc1 | 95.8 |
| C[C@]12C=CC(=O)C=C1CC[C@@H]1[C@@H]2C(=O)C[C@@]2(C)[C@H]1CC[C@]2(O)C(=O)CO | 85.3 |
| O=C(C1CCCCC1)N1CC(=O)N2CCc3ccccc3C2C1 (stereo not shown) | 103 |

Set 3 — action: inhibitor; tested at: 20 µM
Target: Replicase polyprotein 1ab, nsp13 helicase (rep, Severe acute respiratory syndrome coronavirus 2, UniProt P0DTD1)
| Compound | inhibition |
| --- | --- |
| C=C[C@@]1(C)CC(=O)[C@]2(O)[C@@]3(C)[C@@H](O)CCC(C)(C)[C@@H]3[C@H](OC(=O)CCN(C)C)[C@H](OC(C)=O)[C@@]2(C)O1 | 3.34% |
| C=CC[N@@+]12CC[C@@]34c5ccccc5N5/C=C6/[C@H]7C[C@H]8[C@@]9(CC[N@@+]8(CC=C)C/C7=C/CO)c7ccccc7N(/C=C(/[C@@H](C[C@@H]31)/C(=C\CO)C2)[C@H]54)[C@@H]69 | 7.58% |
| Cc1ccc(/N=C/N(C)/C=N/c2ccc(C)cc2C)c(C)c1 | 2.59% |
| CC(C)CC(=O)Nc1n[nH]c2c1CN(C(=O)C1CCN(C)CC1)C2(C)C | -1.84% |
| CC(C)NCC(O)COc1ccc(CC(N)=O)cc1 (stereo not shown) | 2.19% and 8.45% |
| CCN(CC)CCCCC(NC(=O)c1ccc([N+](=O)[O-])cc1)c1ccccc1 (stereo not shown) | 3.39% |
| Cc1ccc(S(=O)(=O)OCC(=O)Nc2ccc(C(=O)O)c(O)c2)cc1 | 3.11% |
| C[C@]12C=CC(=O)C=C1CC[C@@H]1[C@@H]2[C@@H](O)C[C@@]2(C)[C@H]1CC[C@]2(O)C(=O)COC(=O)CCC(=O)O | 3.82% |
| CNCc1ccc(-c2[nH]c3cc(F)cc4c3c2CCNC4=O)cc1 | 12.8% |
| Cc1noc(-c2ccc(-c3ccc(CC(=O)O)cc3)cc2)c1NC(=O)O[C@H](C)c1ccccc1 | -4.76% |
| COCC(=O)Nc1c(I)c(C(=O)NCC(O)CO)c(I)c(C(=O)N(C)CC(O)CO)c1I (mixture of isomers) | 3.08% |
| COc1ccc2cc(-c3cc(-c4cc(Cl)cc(Cl)c4)nn3[C@@H](C)c3ccc(C(=O)NCCC(=O)O)cc3)ccc2c1 | 2.5% |
| Cc1ncc(C[n+]2csc(CCOP(=O)(O)OP(=O)(O)O)c2C)c(N)n1 | -2.99% |
| COc1cc(C[C@H](C)[C@H](C)Cc2ccc3c(c2)OCO3)ccc1O | 0.93% |
| C(#Cc1nc2ncccc2nc1OCCN1CCCC1)c1ccccc1 | 14.9% |
| O=c1cc(-c2ccc(O)cc2)oc2cc(O)cc(O)c12 | 57% |
| CN(C)CCCN1c2ccccc2CCc2ccccc21 | 2.88% |
| CC(C)c1ccc(-c2cc(=O)c3ccccc3o2)cc1 | 3.3% |
| Cc1ccsc1C(=CCCN1CCC[C@@H](C(=O)O)C1)c1sccc1C | 10.4% |
| O=C(NCCS(=O)(=O)c1ccc(C(F)(F)F)cn1)c1ccc(Cl)cc1 | 2.2% |
| CCCCCCCCc1ccc(CCC(N)(CO)CO)cc1 | 8.2% |
| CC(C)(C)NCC(O)c1cc(Br)no1 (stereo not shown) | 7.46% |
| CC(C)(C)c1cc(C=C(C#N)C#N)cc(Br)c1O | 5.75% |

Set 4 — technique: RNA Bind-n-Seq; form: RNA; sample: in vitro; tested at: 365 nM; relative to: no-protein control; direction: higher = stronger binding
Target: RNA binding protein fox-1 homolog 2, RRM domain, GST-SBP tag (RBFOX2, Homo sapiens, UniProt O43251-10, residues 100-194)
Notes: natural RNA segment, single round, ends assumed
Constant ends, left off below: GGGAGUUCUACAGUCCGACGAUC … UGGAAUUCUCGGGUGCCAA
Residues (chain): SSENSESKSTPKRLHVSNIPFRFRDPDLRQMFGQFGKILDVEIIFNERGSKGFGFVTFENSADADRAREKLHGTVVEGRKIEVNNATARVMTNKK
| Oligonucleotide | RBNS enrichment (R) |
| --- | --- |
| UUAUUAAACAUUUUGAGAUUUAGAUAAACUACAUUUUAACUGAAUGUCUAAAGUGAUUAUCUUUUUUCCCCCCAAGUUAGUCUUAAAUCUUUUGGGUUUGAAUGAAGGUU | 0.653 |
| UCCCACACCAUCUGAGUGACUUGAAUUCCAGGGUUGGGCUCUGUCUUGAGUCUCCACAUCAGUCUCACACCAGGGAACUUGGGGGUCCCCCGUUAAACUACAGCUGACCC | 0.364 |
| UGUUCAAGUAUUAAUAUUGUUACAAGGGAAAAGUAAUAUUAGGAUUGUUUGCUCUCCUGUCUGCCCCAGCUGUUUCUGGCAUAUUAUUUUUUGUUAGCUGAGACAUUGAC | 0.779 |
| UAAGGAGUCCCAGCCCUUUCUCUGAUGCCACCACCUGAACCCUGCUCCCUCGUGGGCCAGUGAAAAUAGACUGUAGGUCCUCAGAGCCUUCAGAGAUGAUCCAGCCCAAA | 0.337 |
| CUAGAAUGUAAAUGAAGCUUGCUUGGAAGGGGAAAACUUUAAAUAAAACUUUAUGUAUAAAUUCAACGUCUCUCAUAGACCUCCUUAUAAAACACAUAUAGACUGGAUUA | 1.26 |
| GAUCGUGUUUCUGACGUUUCUCUUCCUUGCCUGGACUGCCUUUGACAAGGCAGAAAUGAACAUGAAAAGUCCCCAGGAGAGGGGAGCUGUGUAGUGAGGGAUACUGAGGG | 0.63 |
| CCUCCUAAACAAACUAACAAAACCAAUAUGGAGGUGGGGGGAGAUGAAGUCCUGUGGAACUGUCUAUGAAGACUGAAACUCACCAAUUGCUGAGUACUUUCGUUGGGGCA | 0.728 |
| GCUGUGCCUGCUCGUGUUGCCUACAUGUCCCUGGCUGUUGAGGCGCUGCUUCAGCCUGCACCCCUCCCUUGUCUCAUAGAUGCUCCUUUUGACCUUUUCAAAUAAAUAUG | 1.33 |

Set 5 — effect on: enzyme activity; action: inhibitor; tested at: 20 µM; notes: primary screen
Target: Replicase polyprotein 1ab, main protease (rep, Severe acute respiratory syndrome coronavirus 2, UniProt P0DTD1)
| Structure (SMILES) | inhibition [%] |
| --- | --- |
| CCOC(=O)c1c(N)sc(-c2ccccc2)c1C | 94.4 |
| Cc1ccc(S(=O)(=O)c2ccc([N+](=O)[O-])o2)cc1 | 65.7 |
| CCCCOc1ccc(CC/C=C2\SC(=O)N(CCN)C2=O)cc1 | 40.3 |
| N[C@@H](Cc1cc(-c2ccc(Cl)cc2Cl)cc(CP(=O)(O)O)c1O)C(=O)O | 43.3 |
